{"data": "Measured values from different studies", "note": "A part holds a random share of what one study measured. Substitutions count along the parent as printed."}
{"data": "Block 1", "target": "CCNB2, cyclin fold, Cln2 fusion (human)", "method": "yeast growth competition, sequencing", "sample": "yeast", "notes": "weak parent motif", "baseline": "not given", "reading": "higher = stronger binding", "starting sequence": "HIRA docking peptide (human); SLSKRKLELEVET"}
{"Change": "SLSKAKLELEVET [R5A]", "normalised enrichment score": -0.627}
{"Change": "SLSKRKLELEAET [V11A]", "normalised enrichment score": -0.425}
{"Change": "SLSKRKAELEVET [L7A]", "normalised enrichment score": -0.287}
{"Change": "SLSKKKLELEVET [R5K]", "normalised enrichment score": 0.0379}
{"Change": "SLSKRKLEAEVET [L9A]", "normalised enrichment score": 0.0858}
{"Change": "SLSARKLELEVET [K4A]", "normalised enrichment score": -0.375}
{"Change": "SASKRKLELEVET [L2A]", "normalised enrichment score": -0.159}
{"data": "Block 2", "target": "CREBRF, bZIP domain (human)", "method": "DHFR protein complementation", "sample": "yeast", "notes": "single substitutions, most at no-binding floor", "baseline": "wild-type JUN-FOS pair", "reading": "higher = stronger binding", "starting sequence": "JUN, bZIP domain (human); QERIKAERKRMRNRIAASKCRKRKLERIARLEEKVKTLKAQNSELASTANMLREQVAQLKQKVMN; partner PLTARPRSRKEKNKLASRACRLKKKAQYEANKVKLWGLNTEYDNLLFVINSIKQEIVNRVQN"}
{"Change": "N42E", "binding fitness [natural log]": -1.49}
{"Change": "N42L", "binding fitness [natural log]": -1.45}
{"Change": "S43K", "binding fitness [natural log]": -1.48}
{"Change": "T48I", "binding fitness [natural log]": -1.45}
{"Change": "L45S", "binding fitness [natural log]": -1.4}
{"Change": "S43I", "binding fitness [natural log]": -1.47}
{"data": "Block 3", "target": "Prothrombin, mature alpha-thrombin (F2, Homo sapiens, UniProt P00734)", "method": "aptamer microarray, sandwich", "form": "DNA with 2'F-ANA", "sample": "in vitro", "concentration": "200 nM", "notes": "whole 15-mer aptamer, many near background", "with": "Cy3 exosite-II aptamer, 400 nM", "reading": "higher = stronger binding", "oligonucleotide": "GGTTGGTGTGGTTGG"}
{"Modification": "2'F-ANA at 2 4 5 6 12 13 14 15", "mean fluorescence intensity [a.u.]": 65}
{"Modification": "2'F-ANA at 4 5 6 9 11 15", "mean fluorescence intensity [a.u.]": 65.4}
{"Modification": "2'F-ANA at 1 2 3 4 5 7 8 9 12 13 15", "mean fluorescence intensity [a.u.]": 77.1}
{"Modification": "2'F-ANA at 1 2 5 11 14 15", "mean fluorescence intensity [a.u.]": 51.8}
{"Modification": "2'F-ANA at 3 4 6 8 10", "mean fluorescence intensity [a.u.]": 268}
{"Modification": "2'F-ANA at 2 4 5 6 7 8 10", "mean fluorescence intensity [a.u.]": 67.1}
{"Modification": "2'F-ANA at 1 2 5 6 7 10 14", "mean fluorescence intensity [a.u.]": 45.7}
{"Modification": "2'F-ANA at 2 3 5 9 12 14", "mean fluorescence intensity [a.u.]": 59.6}
{"data": "Other studies, line by line"}
{"Substance": "PhoQ, residues 284 288 289 292 302 303 QWQEDG", "target": "PhoP, residues 12 14 15 18 19 IFFTR (Escherichia coli, UniProt P23836)", "test": "Sort-seq, refers to: YFP reporter", "system": "E. coli", "conditions": "PhoQ-PhoP variant library, with: 10 µM Mg2+", "how to read": "baseline: high Mg2+ state, higher = stronger signaling", "quantity": "fold induction", "result": 16.8}
{"note": "For quick reference, copied from above (block 3):"}
{"Modification": "2'F-ANA at 1 2 5 6 7 10 14", "mean fluorescence intensity [a.u.]": 45.7}
{"Modification": "2'F-ANA at 1 2 5 11 14 15", "mean fluorescence intensity [a.u.]": 51.8}
